Assay results pooled from the literature.
Lines come from different studies, so protocols differ. ± gives the spread as reported.
SCN9A: Sodium channel protein type 9 subunit alpha (SCN9A, Homo sapiens, UniProt Q15858)
Sequence of UniProt Q15858 (whole entry, looked up): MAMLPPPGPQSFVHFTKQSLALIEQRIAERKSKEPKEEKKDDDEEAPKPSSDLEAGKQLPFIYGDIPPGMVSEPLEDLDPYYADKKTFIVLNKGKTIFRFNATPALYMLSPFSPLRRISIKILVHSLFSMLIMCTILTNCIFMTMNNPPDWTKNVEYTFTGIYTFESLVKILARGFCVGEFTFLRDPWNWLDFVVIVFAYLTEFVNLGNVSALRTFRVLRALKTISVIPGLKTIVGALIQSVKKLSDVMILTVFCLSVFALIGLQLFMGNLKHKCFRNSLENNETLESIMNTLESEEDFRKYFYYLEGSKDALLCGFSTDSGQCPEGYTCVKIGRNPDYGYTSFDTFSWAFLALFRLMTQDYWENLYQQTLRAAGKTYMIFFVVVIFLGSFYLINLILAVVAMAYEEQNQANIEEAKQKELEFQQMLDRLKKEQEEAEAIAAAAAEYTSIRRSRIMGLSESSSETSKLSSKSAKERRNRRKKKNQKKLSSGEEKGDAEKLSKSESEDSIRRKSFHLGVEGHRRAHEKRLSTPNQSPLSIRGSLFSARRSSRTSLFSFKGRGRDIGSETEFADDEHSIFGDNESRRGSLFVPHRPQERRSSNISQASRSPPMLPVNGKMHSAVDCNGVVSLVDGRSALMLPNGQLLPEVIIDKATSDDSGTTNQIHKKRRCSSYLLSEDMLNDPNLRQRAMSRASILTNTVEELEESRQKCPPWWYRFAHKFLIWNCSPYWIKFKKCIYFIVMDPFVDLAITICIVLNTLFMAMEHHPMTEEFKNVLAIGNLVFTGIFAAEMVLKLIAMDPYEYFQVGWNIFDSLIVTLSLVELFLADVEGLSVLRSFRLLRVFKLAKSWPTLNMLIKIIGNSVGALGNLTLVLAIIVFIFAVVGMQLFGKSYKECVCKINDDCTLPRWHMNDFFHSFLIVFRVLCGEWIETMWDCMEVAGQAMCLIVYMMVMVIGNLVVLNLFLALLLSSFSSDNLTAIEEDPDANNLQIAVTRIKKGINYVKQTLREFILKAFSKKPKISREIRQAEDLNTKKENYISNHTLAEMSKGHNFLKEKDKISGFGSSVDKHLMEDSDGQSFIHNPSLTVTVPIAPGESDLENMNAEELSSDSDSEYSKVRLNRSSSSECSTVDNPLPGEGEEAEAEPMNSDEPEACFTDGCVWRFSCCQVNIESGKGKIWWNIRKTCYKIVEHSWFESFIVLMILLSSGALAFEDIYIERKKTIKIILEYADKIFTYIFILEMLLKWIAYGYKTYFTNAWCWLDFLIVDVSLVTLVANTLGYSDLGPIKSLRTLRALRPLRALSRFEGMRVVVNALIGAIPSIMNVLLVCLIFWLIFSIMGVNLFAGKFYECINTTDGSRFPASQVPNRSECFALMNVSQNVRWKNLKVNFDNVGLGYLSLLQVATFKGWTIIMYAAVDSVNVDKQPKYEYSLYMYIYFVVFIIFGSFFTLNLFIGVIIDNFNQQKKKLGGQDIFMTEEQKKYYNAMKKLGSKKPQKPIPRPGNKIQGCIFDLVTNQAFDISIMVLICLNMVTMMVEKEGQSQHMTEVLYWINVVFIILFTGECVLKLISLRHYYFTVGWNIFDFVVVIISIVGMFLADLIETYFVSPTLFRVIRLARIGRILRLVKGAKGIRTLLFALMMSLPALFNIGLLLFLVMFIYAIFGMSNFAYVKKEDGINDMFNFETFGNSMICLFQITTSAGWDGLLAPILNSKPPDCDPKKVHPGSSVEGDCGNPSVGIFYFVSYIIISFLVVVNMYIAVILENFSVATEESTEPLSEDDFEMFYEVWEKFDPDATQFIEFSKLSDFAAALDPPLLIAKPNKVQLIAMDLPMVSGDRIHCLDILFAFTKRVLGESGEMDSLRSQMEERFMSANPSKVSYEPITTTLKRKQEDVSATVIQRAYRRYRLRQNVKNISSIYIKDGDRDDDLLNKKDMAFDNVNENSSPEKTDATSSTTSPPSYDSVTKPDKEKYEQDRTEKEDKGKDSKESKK
WWOX WW1 domain: WW domain-containing oxidoreductase, WW1 domain (WWOX, Homo sapiens, UniProt Q9NZC7)
Sequence of UniProt Q9NZC7 (whole entry, unmodified, looked up): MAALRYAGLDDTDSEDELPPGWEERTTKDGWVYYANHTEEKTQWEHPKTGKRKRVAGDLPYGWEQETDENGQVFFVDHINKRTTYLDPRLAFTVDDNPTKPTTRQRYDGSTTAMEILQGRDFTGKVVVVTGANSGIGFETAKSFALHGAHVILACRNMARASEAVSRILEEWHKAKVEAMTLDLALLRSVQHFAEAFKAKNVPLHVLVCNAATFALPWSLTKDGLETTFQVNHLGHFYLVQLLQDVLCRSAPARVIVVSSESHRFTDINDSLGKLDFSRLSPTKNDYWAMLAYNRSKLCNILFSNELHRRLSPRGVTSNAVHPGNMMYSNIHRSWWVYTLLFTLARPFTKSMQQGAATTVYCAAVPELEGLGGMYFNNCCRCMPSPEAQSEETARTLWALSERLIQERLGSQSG
MAL12: Alpha-glucosidase MAL12 (MAL12, Saccharomyces cerevisiae S288c, UniProt P53341)
Sequence of UniProt P53341 (whole entry, looked up): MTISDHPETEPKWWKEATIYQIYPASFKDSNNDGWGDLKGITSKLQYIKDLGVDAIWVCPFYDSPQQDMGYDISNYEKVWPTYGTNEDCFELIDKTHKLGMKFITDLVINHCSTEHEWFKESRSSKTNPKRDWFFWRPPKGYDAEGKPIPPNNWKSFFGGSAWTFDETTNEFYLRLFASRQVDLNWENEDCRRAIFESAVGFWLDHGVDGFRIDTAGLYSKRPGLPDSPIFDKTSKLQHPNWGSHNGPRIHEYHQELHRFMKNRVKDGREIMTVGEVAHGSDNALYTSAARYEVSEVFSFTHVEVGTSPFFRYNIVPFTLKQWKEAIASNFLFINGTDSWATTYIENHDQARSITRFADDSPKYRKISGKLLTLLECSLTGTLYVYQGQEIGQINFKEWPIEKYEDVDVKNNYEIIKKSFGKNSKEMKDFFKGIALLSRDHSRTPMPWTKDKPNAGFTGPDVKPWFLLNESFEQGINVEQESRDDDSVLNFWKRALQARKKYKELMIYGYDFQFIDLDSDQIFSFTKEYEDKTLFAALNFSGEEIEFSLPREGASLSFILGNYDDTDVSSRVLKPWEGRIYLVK
Sequence of UniProt Q60603 (whole entry, looked up): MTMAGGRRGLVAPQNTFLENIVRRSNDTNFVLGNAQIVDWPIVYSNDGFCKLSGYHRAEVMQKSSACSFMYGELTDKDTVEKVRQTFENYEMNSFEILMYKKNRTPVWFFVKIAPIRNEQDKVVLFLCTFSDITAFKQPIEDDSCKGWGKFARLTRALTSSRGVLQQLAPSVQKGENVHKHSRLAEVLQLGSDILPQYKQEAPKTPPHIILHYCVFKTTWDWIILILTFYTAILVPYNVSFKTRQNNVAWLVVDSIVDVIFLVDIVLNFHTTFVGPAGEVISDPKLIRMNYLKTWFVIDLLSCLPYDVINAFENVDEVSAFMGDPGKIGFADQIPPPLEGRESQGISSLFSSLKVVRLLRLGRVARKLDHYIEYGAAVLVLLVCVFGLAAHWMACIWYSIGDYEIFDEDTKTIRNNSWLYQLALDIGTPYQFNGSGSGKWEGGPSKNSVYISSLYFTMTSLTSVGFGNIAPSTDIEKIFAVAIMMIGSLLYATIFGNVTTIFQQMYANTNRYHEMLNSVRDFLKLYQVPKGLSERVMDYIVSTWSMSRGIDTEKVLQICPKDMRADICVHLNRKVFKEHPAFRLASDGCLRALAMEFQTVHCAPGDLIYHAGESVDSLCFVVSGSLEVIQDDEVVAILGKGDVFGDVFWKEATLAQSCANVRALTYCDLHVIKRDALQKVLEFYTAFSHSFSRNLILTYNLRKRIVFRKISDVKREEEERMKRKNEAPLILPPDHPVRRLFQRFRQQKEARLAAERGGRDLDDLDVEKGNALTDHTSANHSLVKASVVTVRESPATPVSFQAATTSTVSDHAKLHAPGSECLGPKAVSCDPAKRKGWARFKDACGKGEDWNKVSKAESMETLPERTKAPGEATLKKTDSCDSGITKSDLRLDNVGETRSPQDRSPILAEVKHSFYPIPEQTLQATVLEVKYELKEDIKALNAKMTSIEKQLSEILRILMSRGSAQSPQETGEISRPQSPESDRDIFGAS
Sequence of UniProt P53559 (whole entry, looked up): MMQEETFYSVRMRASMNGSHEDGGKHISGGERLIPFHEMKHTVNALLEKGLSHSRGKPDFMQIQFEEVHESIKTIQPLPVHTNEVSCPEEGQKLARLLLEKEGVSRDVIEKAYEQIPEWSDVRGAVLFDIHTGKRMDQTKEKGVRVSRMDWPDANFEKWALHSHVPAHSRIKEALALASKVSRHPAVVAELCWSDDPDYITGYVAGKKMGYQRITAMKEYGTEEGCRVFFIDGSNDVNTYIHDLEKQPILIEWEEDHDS
Sequence of UniProt P01899 (whole entry, looked up): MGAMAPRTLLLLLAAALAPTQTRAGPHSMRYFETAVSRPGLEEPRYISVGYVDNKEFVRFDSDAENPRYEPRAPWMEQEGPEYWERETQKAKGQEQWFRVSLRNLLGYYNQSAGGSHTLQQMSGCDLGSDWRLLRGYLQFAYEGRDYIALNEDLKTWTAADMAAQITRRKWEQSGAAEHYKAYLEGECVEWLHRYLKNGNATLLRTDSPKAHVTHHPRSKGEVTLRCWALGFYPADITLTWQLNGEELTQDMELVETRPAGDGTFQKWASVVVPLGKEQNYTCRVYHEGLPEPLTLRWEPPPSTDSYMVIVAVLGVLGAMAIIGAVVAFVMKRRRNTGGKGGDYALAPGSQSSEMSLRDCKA
Sequence of UniProt P69905 (whole entry, looked up): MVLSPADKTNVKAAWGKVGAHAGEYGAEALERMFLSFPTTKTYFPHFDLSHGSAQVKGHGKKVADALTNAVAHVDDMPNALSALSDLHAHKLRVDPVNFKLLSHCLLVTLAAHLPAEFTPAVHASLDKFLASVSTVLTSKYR

O=c1cc(-c2ccc(O)c(O)c2)oc2cc(O)cc(O)c12  V1/2 shift (Kcnh1 (Mus musculus, UniProt Q60603); inside-out patch clamp; Xenopus oocytes; 10 µM): -11 ± 2.5 mV
COC(=O)c1scc(C)c1NC(=O)C(C)NCCN1CCOCC1 (centres unmarked)  capacity factor k′ (SCN9A; cell membrane chromatography; higher = stronger binding): 104
COc1ccc([C@H]2Sc3ccccc3N(CCN(C)C)C(=O)[C@H]2OC(C)=O)cc1  K1/2 (CNGA1/CNGB1 (Bos taurus, UniProt Q00194+Q28181); cGMP-activated current, blocker, inside-out patch clamp; pH 7.2, about 20 °C, +60 mV, high-affinity component, together with: 2.5 mM cGMP): 0.56 ± 0.09 µM
CC(C)[C@H](NC(=O)[C@@H](N)[C@@H](C)O)C(=O)N[C@@H](C)C(=O)N1CCC[C@H]1C(=O)N1CCC[C@H]1C(=O)N1CCC[C@H]1C(=O)N1CCC[C@H]1C(=O)N[C@@H](Cc1ccc(O)cc1)C(=O)N[C@@H](CCCNC(=N)N)C(=O)N[C@@H](Cc1c[nH]cn1)C(=O)N[C@@H](CCCNC(=N)N)C(=O)N[C@@H](CC(N)=O)C(=O)O  binding enthalpy ΔH (WWOX WW1 domain; binding to WW1 domain, isothermal titration calorimetry; concentration not given, pH 7.0, 25 °C): -6.19 ± 0.6 kcal/mol
AMFKNNYPSL  MFI increase (H-2 class I histocompatibility antigen, D-B alpha chain, 17 (H2-D1, Mus musculus, UniProt P01899); H2-D binding, flow cytometry; peptide, RMA-S; 10 µg per 100 µL, 3 h): 298%
COc1ccc2c(=O)c(OC)c(-c3ccccc3)oc2c1  inhibition (MAL12; enzyme activity, inhibitor; 10 µM, together with: p-nitrophenyl α-D-glucopyranoside): < 1%
COC(=O)c1scc(C)c1NC(=O)C(C)N1CCN(CCO)CC1 (centres unmarked)  capacity factor k′ (SCN9A; cell membrane chromatography; higher = stronger binding): 4.6
CC/C=C/[C@H](CC)C/C(=C/[C@@]1(CC)C[C@H](CC)[C@H](CC(=O)O)OO1)CC  remaining binding (Endothelin-1 receptor (EDNRA, Homo sapiens, UniProt P25101); ligand displacement, radioligand; 10 µg/mL, 30 min): 85%
COCCN1CCN(C(C)C(=O)Nc2c(C)csc2C(=O)OC)CC1 (centres unmarked)  capacity factor k′ (SCN9A; cell membrane chromatography; higher = stronger binding): 107
COc1cc2c(cc1OC)-c1c/c(=N\c3c(C)cc(C)cc3C)n(C)c(=O)n1CC2  IC50 (Dual specificity calcium/calmodulin-dependent 3',5'-cyclic nucleotide phosphodiesterase 1B (Homo sapiens, UniProt Q01064); cGMP hydrolysis, inhibitor; up to 50 µM): inactive
O=Cc1ccc(CO)o1  P50 change (Hemoglobin subunit alpha, with sickle beta chain (HBA1, Homo sapiens, UniProt P69905); oxygen affinity; sickle red cell lysate; 2000 µM; baseline: untreated): 33.4 ± 0.9%
CC(C)C[C@H](NC(=O)[C@H](C)NC(=O)[C@@H](N)[C@@H](C)O)C(=O)N1CCC[C@H]1C(=O)N1CCC[C@H]1C(=O)N1CCC[C@H]1C(=O)N1CCC[C@H]1C(=O)N[C@@H](Cc1ccc(O)cc1)C(=O)N[C@@H](CCCNC(=N)N)C(=O)N[C@@H](Cc1c[nH]cn1)C(=O)N[C@@H](CCCNC(=N)N)C(=O)N[C@@H](CC(N)=O)C(=O)O  entropy term TΔS (WWOX WW1 domain; binding to WW1 domain, isothermal titration calorimetry; pH 7.0, 25 °C): 1.73 ± 0.34 kcal/mol
COc1ccc(-c2cc(=O)c3c(O)cc(OC)cc3o2)cc1  inhibition (MAL12; enzyme activity, inhibitor, absorbance; 100 µM): 15.7%
Cc1ccc(NC(=O)N2CCN(c3ccnc(Nc4ccc(Cl)cc4)n3)[C@@H](C)C2)cc1  activity ratio (MAL12; enzyme activity, inhibitor; Saccharomyces cerevisiae; together with: p-nitrophenyl glucoside substrate; baseline: S over R enantiomer): ~3 fold
CC1=C(C(=O)OCc2ccccc2)C(c2ccc(-c3ccccc3C)cc2)NC(=O)N1CCCCCc1nnn[nH]1 (centres unmarked)  fold change in activity (Heat shock 70 kDa protein 1A (HSPA1A, Homo sapiens, UniProt P0DMV8); ATPase activity, inhibitor; 100 µM, without Hsp40; baseline: DMSO, negative means inhibition): -1.4 fold
Nc1ncnc2c1ncn2[C@@H]1O[C@H](COP(=O)(O)OC(=O)CCCCCC(=O)O)[C@@H](O)[C@H]1O  pimeloyl-AMP bound per monomer (6-carboxyhexanoate--CoA ligase (bioW, Bacillus subtilis, UniProt P53559); pH 7.0, 37 °C, no CoA): 1 molecules per monomer
O=c1cc(-c2ccccc2)oc2cc(O)ccc12  inhibition (MAL12; enzyme activity, inhibitor; 50 µM): < 1%
CC(C)C[C@H](NC(=O)[C@@H](NC(=O)[C@@H](N)[C@@H](C)O)C(C)C)C(=O)N1CCC[C@H]1C(=O)N1CCC[C@H]1C(=O)N1CCC[C@H]1C(=O)N1CCC[C@H]1C(=O)N[C@@H](Cc1ccc(O)cc1)C(=O)N[C@@H](C)C(=O)N[C@@H](Cc1c[nH]cn1)C(=O)N[C@@H](CCCNC(=N)N)C(=O)N[C@@H](CC(N)=O)C(=O)O  binding free energy ΔG (WWOX WW1 domain; binding to WW1 domain, isothermal titration calorimetry; pH 7.0, 25 °C): -4.87 ± 0.14 kcal/mol
COC(=O)c1scc(C)c1NC(=O)C(C)N1CCOCC1 (centres unmarked)  capacity factor k′ (SCN9A; cell membrane chromatography; higher = stronger binding): 4.8
CSCC[C@H](NC(=O)[C@@H]1CCCN1C(=O)[C@@H](NC(=O)[C@H](Cc1ccc(O)cc1)NC(=O)[C@H](C)NC(=O)[C@@H]1CCCN1C(=O)[C@@H]1CCCN1C(=O)[C@@H]1CCCN1C(=O)[C@H](CO)NC(=O)[C@H](Cc1c[nH]cn1)NC(=O)CN)[C@@H](C)O)C(=O)N[C@@H](CO)C(=O)O  TΔS (WW domain-containing oxidoreductase, WW2 domain Y85W (WWOX, Homo sapiens, UniProt Q9NZC7, Y85W); binding, ITC; pH 7.0, 25 °C): -3.7 ± 1.14 kcal/mol
CCCCCCCCCCCCCCCC(=O)O  acyl loading of EcdA-M1 (Fatty-acyl-AMP ligase ecdI (ecdI, Aspergillus rugulosus, UniProt K0E2F3); substrate; ~40 µM, 30 min, pH 7.0, ambient, together with: holo-EcdA-M1 10 µM, ATP 5 mM): 27%
CC(C)C1CCCC(C(C)C)C1O (centres unmarked)  decrease in efficacy (Potassium/sodium hyperpolarization-activated cyclic nucleotide-gated channel 1 (Hcn1, Mus musculus, UniProt O88704); V1/2 shift, two-electrode voltage clamp; Xenopus oocytes; baseline: cyclohexanol over corresponding phenol): > 2 fold
DDLKQKACESRCTKL  patients with IgE binding (human IgE; peptide microarray; peptide, peanut-allergic patient sera; concentration not given, 16 h, 4 °C): 0%
CCCCCCCCCCCC(=O)O  remaining 1-NPN fluorescence (chemosensory protein 3 (Chilo suppressalis, UniProt V9PY40); binding, competitive ligand, fluorescence competitive binding; highest concentration tested, pH 7.4, protein 2 µM, together with: 1-NPN 2 µM; baseline: no ligand): 72.5 ± 2.04%
CSCC[C@@H]1NC(=O)[C@H](C)NC(=O)[C@H](CCC(=O)O)NC(=O)[C@@H](NC(=O)[C@@H]2CCCN2C(=O)[C@H](CO)NC(=O)[C@H](CO)NC(=O)CNC(=O)[C@H](CO)NC(=O)CNC(=O)[C@H](CO)NC(=O)CNC(=O)[C@H](CCCCN)NC(=O)[C@H](CC(=O)O)NC(=O)[C@H](CC(=O)O)NC(=O)[C@H](CC(=O)O)NC(=O)[C@H](CC(=O)O)NC(=O)[C@H](CCCCN)NC(=O)[C@H](Cc2ccc(O)cc2)NC(=O)[C@H](CC(=O)O)NC(=O)[C@@H](N)CCSC)Cc2ccc(cc2)OCCSC[C@@H](C(=O)N[C@H](C(=O)N[C@@H](CC(=O)O)C(=O)N[C@H](C(=O)O)[C@@H](C)O)[C@@H](C)O)NC(=O)[C@H](CCSC)NC(=O)[C@H](CC(=O)O)NC1=O  binding reduction (Sonic hedgehog; 1 µM, 1 h, room temperature, together with: 200 µM robotnikinin; baseline: no competitor): ~40%
CC(C)C[C@H](NC(=O)[C@@H](NC(=O)[C@@H](N)[C@@H](C)O)C(C)C)C(=O)N1CCC[C@H]1C(=O)N1CCC[C@H]1C(=O)N1CCC[C@H]1C(=O)N1CCC[C@H]1C(=O)N[C@@H](Cc1ccc(O)cc1)C(=O)N[C@@H](CCCNC(=N)N)C(=O)N[C@@H](Cc1c[nH]cn1)C(=O)N[C@@H](CCCNC(=N)N)C(=O)N[C@@H](CC(N)=O)C(=O)O  ΔH (WWOX WW1 domain; binding, ITC; pH 7.0, 25 °C): -6.21 ± 0.54 kcal/mol

Excerpt of the above:
O=c1cc(-c2ccccc2)oc2cc(O)ccc12  inhibition (MAL12; enzyme activity, inhibitor; 50 µM): < 1%
CC(C)C[C@H](NC(=O)[C@@H](NC(=O)[C@@H](N)[C@@H](C)O)C(C)C)C(=O)N1CCC[C@H]1C(=O)N1CCC[C@H]1C(=O)N1CCC[C@H]1C(=O)N1CCC[C@H]1C(=O)N[C@@H](Cc1ccc(O)cc1)C(=O)N[C@@H](C)C(=O)N[C@@H](Cc1c[nH]cn1)C(=O)N[C@@H](CCCNC(=N)N)C(=O)N[C@@H](CC(N)=O)C(=O)O  binding free energy ΔG (WWOX WW1 domain; binding to WW1 domain, isothermal titration calorimetry; pH 7.0, 25 °C): -4.87 ± 0.14 kcal/mol
